Published values from different studies.
Each line is one published result; not all experiments were run side by side. ± gives the spread as reported.
Cell line: A549

Substance = CC1=CC(=O)c2ccccc2C1=O; assay = diacetyl reduction to acetoin; conditions = 300 µM, 3 h, together with: diacetyl 2 mM; endpoint = inhibition; result = ~65%
Substance = TCVCGS; system = peptide; conditions = 2 µg coated per well, 30 to 60 min; scale = relative to: thrombospondin-coated wells; endpoint = adherent cells; result = 10%
Substance = Cc1cc(C)c(C2C3CCCN3C3(C(=O)Nc4ccccc43)C2C(=O)c2cccc(Cl)c2)c(C)c1 (centres unmarked); assay = cell growth or viability, MTT; endpoint = IC50; result = < 10 µM
Substance = O=[N+]([O-])c1ccc2nc(/C=C/c3ccc4ccccc4c3)c(/C=C/c3ccc4ccccc4c3)nc2c1; assay = cell growth or viability, MTT; conditions = 72 h; endpoint = IC50; result = > 100 µM
Substance = Cc1cc(C)c(C2C3CCCN3C3(C(=O)Nc4ccccc43)C2C(=O)c2ccc(Cl)cc2)c(C)c1 (centres unmarked); assay = cell growth or viability, MTT; conditions = 48 h; endpoint = IC50; result = 8.24 µM
Substance = CC(C=NN=C(N)[S-])=NN=C(N)[S-].O=[N+]([O-])[O-].[Co+3].c1c[nH]cn1.c1c[nH]cn1; assay = cell viability, MTT; conditions = 24 h hypoxic, 48 h normoxic, hypoxic treatment; endpoint = IC50; result = ~8.6 µM
Substance = O=C(/C=C\c1ccc(O)c(O)c1)Nc1ccc(S(=O)(=O)Nc2ncccn2)cc1; assay = cell viability, MTT; conditions = 24 h pretreatment, together with: H2O2 800 µM for 4 h; endpoint = protective concentration; result = ≤ 200 µM
Substance = CSTSCG; system = peptide; conditions = 2 µg coated per well, 30 to 60 min; scale = relative to: thrombospondin-coated wells; endpoint = adherent cells; result = 23%
Substance = NC(=O)Cn1cc(COc2ccccc2-c2nc(-c3ccccc3)no2)nn1; assay = qPCR, refers to: PI3K; conditions = IC50, 24 h; scale = relative to: untreated cancer cells; endpoint = mRNA level; result = 0.28 ± 0.002 fold
Substance = Cc1cc(C)c(C2CN(C)C3(C(=O)Nc4ccccc43)C2C(=O)c2ccccc2)c(C)c1 (centres unmarked); assay = cell growth or viability, MTT; conditions = 48 h; endpoint = IC50; result = 3.81 µM
Substance = Nc1nccc(-n2cc(C(=O)N[C@@H]3CCCNC3)c3ccc(C#CC4(O)CCCCC4)cc32)n1; assay = wound-healing; conditions = 5 µM; endpoint = cell migration; result = 52%
Substance = CC(=NN=C(N)[S-])C(C)=NN=C(N)[S-].O=[N+]([O-])[O-].[Co+3].c1c[nH]cn1.c1c[nH]cn1; assay = cell viability, MTT; conditions = 24 h then 48 h recovery, normoxia; endpoint = IC50; result = > 500 µM
Substance = NC(=O)Cn1cc(COc2ccccc2-c2nc(Cc3ccccc3)no2)nn1; assay = qPCR, refers to: mTOR; conditions = IC50, 24 h; scale = relative to: untreated cancer cells; endpoint = mRNA level; result = 0.25 ± 0.0008 fold
Substance = Nc1nccc(-n2cc(C(=O)N3CC[C@@H](N)C3)c3ccc(C#CC4(O)CCCCC4)cc32)n1; assay = wound-healing; conditions = 5 µM; endpoint = cell migration; result = 68%
Substance = C#C[C@@]1(O)[C@@H](CO)O[C@@H](n2cc(Br)c3c(N)ncnc32)[C@@H]1O; conditions = 48 h; endpoint = GI50; result = 0.019 ± 0.097 µM
Substance = Nc1nccc(-n2cc(C(=O)N3CCC[C@H](N)C3)c3ccc(C#CC4(O)CCCCC4)cc32)n1; assay = wound-healing; conditions = 5 µM; endpoint = cell migration; result = 71%
Substance = Cc1cc(-c2ccccc2)c2ccc3c(-c4ccccc4)cc(C)nc3c2n1; conditions = 3 µM; scale = relative to: intracellular over initial extracellular; endpoint = cellular accumulation; result = 400 to 600 fold
Substance = COc1cccc2c1C(=O)c1c(O)c3c(c(O)c1C2=O)C[C@@](O)(C(=O)CO)C[C@@H]3O[C@H]1C[C@H](N)[C@H](O)[C@H](C)O1; assay = qPCR, refers to: EGFR; conditions = IC50, 24 h; scale = relative to: untreated cancer cells; endpoint = mRNA level; result = 0.16 ± 0.02 fold
Substance = COc1cnc(NS(=O)(=O)c2ccc(NC(=O)/C=C\c3ccc(O)c(O)c3)cc2)nc1; assay = cell viability, MTT; conditions = 24 h pretreatment, together with: H2O2 800 µM for 4 h; endpoint = protective concentration; result = ≤ 200 µM
Substance = Cc1cc(C)c(C2C3CCCN3C3(C(=O)Nc4ccccc43)C2C(=O)c2ccccc2)c(C)c1 (centres unmarked); assay = cell growth or viability, MTT; conditions = 24 h; endpoint = IC50; result = 28.9 µM
Substance = Nc1ncnc2c1nc(Sc1ccc(Cl)cc1)n2[C@@H]1O[C@@H]2COP(=O)(O)O[C@H]2[C@H]1O; assay = fluorescein-WGA ratio imaging; conditions = concentration not given, 37 °C, medium pH 7.4; endpoint = cell surface pH; result = 6.55
Substance = Nc1nccc(-n2cc(C(=O)NC3CCNCC3)c3ccc(C#CC4(O)CCCCC4)cc32)n1; assay = wound-healing; conditions = 5 µM; endpoint = cell migration; result = 39%
Substance = VCTGSC; system = peptide; conditions = 2 µg coated per well, 30 to 60 min; scale = relative to: thrombospondin-coated wells; endpoint = adherent cells; result = 8%
Substance = NS(=O)(=O)c1ccc(NC(=O)/C=C\c2ccc(O)c(O)c2)cc1; assay = cell viability, MTT; conditions = 24 h pretreatment, together with: H2O2 800 µM for 4 h; endpoint = protective concentration; result = ≤ 200 µM
Substance = NNC(=O)Cn1cc(COc2ccccc2-c2nc(-c3ccccc3)no2)nn1; assay = qPCR, refers to: PI3K; conditions = IC50, 24 h; scale = relative to: untreated cancer cells; endpoint = mRNA level; result = 0.3 ± 0.004 fold
Substance = Cc1ccc(C(=O)C2C(c3c(C)cc(C)cc3C)CN(C)C23C(=O)Nc2ccccc23)cc1 (centres unmarked); assay = cell growth or viability, MTT; endpoint = IC50; result = < 10 µM
Substance = Nc1ncnc2[nH]ncc12; assay = cell viability; endpoint = EC50; result = 3 µM
Substance = O=C(Cn1cc(COc2ccccc2-c2nc(Cc3ccccc3)no2)nn1)NNC(=S)Nc1ccccc1; assay = qPCR, refers to: TP53; conditions = concentration not given, 24 h; scale = relative to: untreated; endpoint = mRNA level; result = 5.4 ± 0.01 fold
Substance = Nc1nccc(-n2cc(C(=O)N3CCNC(=O)C3)c3ccc(C#CC4(O)CCCCC4)cc32)n1; assay = wound-healing; conditions = 5 µM; endpoint = cell migration; result = 73%
